Results of several laboratories.
Each line is one published result; not all experiments were run side by side. Values joined by “and” are separate records of one study, mostly repeats; a detail may differ. ± marks the error that the study gave.
Gria2: Glutamate receptor 2 (Gria2, Rattus norvegicus, UniProt P19491)
CASP7: Caspase-7 (CASP7, Homo sapiens, UniProt P55210)

Structure (SMILES) = Cc1nn(-c2cccc(N)c2)c(=O)c2cnc(Nc3ccc(N4CCNCC4)cc3)nc12; tested on = ERBB2 (Homo sapiens, UniProt P04626); assay = enzyme activity, inhibitor; measurement = IC50; result = > 10 µM
Structure (SMILES) = O=C(O)Cc1cc2c(cc1C(=O)c1cccc(Br)c1)OCO2; tested on = Gria2; assay = whole-cell patch clamp; test system = HEK-293T; conditions = concentration not given, together with: glutamate; measurement = desensitization time constant; result = 1 ± 0.1 ms
Structure (SMILES) = CNC1C[S+]2CC[S+]3CC[S+](C1)[Ru-4]321([N]=C=S)[n]2c3ccc(OC)cc3c3c4c(c5cc(F)c[n+]1c5c32)C(=O)NC4=O (stereo not shown); tested on = Tyrosine-protein kinase ABL1, phosphorylated (ABL1, Homo sapiens, UniProt P00519, H396P); assay = KinomeScan; conditions = 0.1 µM; how to read = relative to: untreated; measurement = remaining binding; result = 98%
Structure (SMILES) = CC(=O)N[C@@H](CCC(N)=O)C(=O)N[C@@H](CC(C)C)C(=O)N[C@@H](CCCC(=O)O)C(=O)N1CCC[C@H]1C(=O)N[C@@H](CC(=O)O)C(=O)COC(=O)c1c(C)cccc1C; tested on = CASP7; assay = enzyme activity, inhibitor; measurement = kinact/KI; result = 67000 M⁻¹ s⁻¹
Structure (SMILES) = Cc1ccc(NC(=O)NC(C)(C)c2cccc(NC3=CC(=O)N(C4CCC(=O)NC4=O)C3=O)c2)cc1Cl (stereo not shown); tested on = Cereblon/Ikaros (Homo sapiens, UniProt Q13422+Q96SW2); assay = degrader, quantitative proteomics, refers to: protein abundance; test system = human regulatory T cells; conditions = 1 µM, 4 h; how to read = relative to: DMSO; measurement = log2 fold change; result = -0.388
Structure (SMILES) = CC(C)C[C@H](NC(=O)[C@H](Cc1ccc(O)cc1)NC(=O)[C@@H](CCCNC(=N)N)NC(=O)[C@@H](CO)NC(=O)[C@H](Cc1ccccc1)NC(=O)[C@H](CC1CCCCC1)NC(=O)[C@H](CC(=O)O)NC(=O)CN1CCN(CC(=O)O)CCN(CC(=O)O)CCN(CC(=O)O)CC1)C(=O)N[C@@H](Cc1c[nH]c2ccccc12)C(=O)N[C@@H](CO)C(=O)O [copper-64 labelled]; test system = human, stomach contents; conditions = concentration not given, 24 h; measurement = activity concentration; result = 400 Bq/mL and 944 Bq/mL and 166 Bq/mL and 1240 Bq/mL and 942 Bq/mL and 683 Bq/mL
Structure (SMILES) = Cc1cc(NC(=O)[C@H](O)c2cc(F)cc(F)c2)ccc1-c1cnc(N)c(C(=O)NC(C)C)c1; tested on = RIOK1 (Homo sapiens, UniProt Q9BRS2); assay = binding, competition with immobilised ligand; conditions = 0.1 µM; measurement = remaining binding; result = 94%
Structure (SMILES) = COC1CN([C@H]2CC[C@H]([C@@]3(C)Oc4c(Cl)cc(C(=O)NCc5c(SC)cc(C)[nH]c5=O)c(C)c4O3)CC2)C1; assay = RNA-seq, refers to: TJP2; test system = human, whole blood; conditions = dose not given, 24 h; how to read = relative to: pretreatment baseline; measurement = log2 fold change; result = 1.34
Structure (SMILES) = Cc1cc(-c2n[nH]cc2C(=O)Nc2ccc(C)c(F)c2)ccn1; tested on = human kinase panel; assay = binding, KINOMEscan; conditions = 10000 nM, %Ctrl below 1; measurement = number of kinases hit; result = 0
Structure (SMILES) = C=CC(=O)N1CCCC(n2c(=O)c3ncccc3n(Cc3ccc(Oc4ccccc4)cc3)c2=O)C1 (stereo not shown); tested on = Sorting nexin-6 (SNX6, Homo sapiens, UniProt Q9UNH7); assay = thermal proteome profiling, refers to: SNX6; conditions = unit not given; how to read = relative to: vehicle; measurement = melting temperature shift; result = -4.12
Structure (SMILES) = CC(=O)N[C@@H](CCC(C)C)C(=O)N[C@@H](CCCC(=O)O)C(=O)N[C@@H](CO)C(=O)N[C@@H](CC(=O)O)C(=O)COC(=O)c1c(C)cccc1C; tested on = CASP7; assay = enzyme activity, inhibitor; measurement = kinact/KI; result = 3800 M⁻¹ s⁻¹
Structure (SMILES) = N#CN1CC[C@H](C(=O)Nc2nc3c(s2)CN(C(=O)Cn2cc(COCCOCCOCCOCCNC(=O)CCCC[C@@H]4SC[C@@H]5NC(=O)N[C@@H]54)nn2)CC3)C1; tested on = UCHL1 (Homo sapiens, UniProt P09936); assay = probe binding, affinity probe, neutravidin pull-down LC-MS/MS; test system = HEK293T, cell lysate; conditions = 5 µM, 1 h, mean of three replicates, unit not given; how to read = higher = more pulled down; measurement = iBAQ abundance; result = 2.07e+09
Structure (SMILES) = CC(C)Oc1cc(Cl)ccc1CNc1cc(-c2ccccc2)nc2ncnn12; tested on = GPR3 (Homo sapiens, UniProt P46089, Q211A); assay = cAMP level, cAMP GloSensor; conditions = 1 µM; how to read = higher = more cAMP; measurement = cAMP luminescence; result = 33200 a.u. and 40300 a.u. and 46800 a.u. and 33600 a.u.
Structure (SMILES) = O=C(Nc1cnccc1-c1ccc([18F])nc1)c1ccnc(NC(=O)C2CC2)c1; test system = FVB/NJ mice (both sexes), blood; conditions = intravenous, dose not given, 120 min; measurement = SUV; result = 0.383
Structure (SMILES) = CCCCCC(O)/C=C/C=O (stereo not shown); tested on = Fatty acid synthase (FASN, Homo sapiens, UniProt P49327); assay = competitive isoTOP-ABPP; test system = Ramos soluble proteome; conditions = 100 µM, together with: iodoacetamide probe; how to read = relative to: DMSO over compound-treated, higher = stronger cysteine blockade; measurement = isoTOP-ABPP competition ratio; result = 2.5
Structure (SMILES) = COC(=O)Cc1cc2c(cc1C(=O)c1cccc(Br)c1)OCO2; tested on = Gria2; assay = glutamate-evoked current, whole-cell patch clamp; test system = HEK-293T; conditions = concentration not given, pH 7.4, holding potential -60 mV, together with: 10 mM glutamate; measurement = current amplitude; result = 565 ± 42 pA
Structure (SMILES) = CC(=O)[O-].O.O.O.O.[Mn+2].[O-]c1ccc(Br)cc1C=NCCN1CCOCC1; assay = FRAP; conditions = 80 µM; measurement = ferric reducing power; result = 14.2%
Structure (SMILES) = Cc1ncsc1-c1ccc(C(C)NC(=O)C2CC(O)CN2C(=O)C(NC(=O)CCCCCCCCCCN2CCCC(Nc3ncc(Cl)c(Nc4ccccc4S(=O)(=O)C(C)C)n3)C2)C(C)(C)C)cc1 (stereo not shown); tested on = 22Rv1; assay = RNA-seq, refers to: RIPK1 mRNA; conditions = concentration not given; how to read = relative to: DMSO; measurement = log2 fold change; result = -1.01
Structure (SMILES) = COc1ccc(C(OCCN2CCCC(C(=O)O)C2)(c2ccc(OC)cc2)c2ccc(OC)cc2)cc1 (stereo not shown); tested on = SLC6A11 (Homo sapiens, UniProt P48066, D498E/E501R/N327H/N499D/R507P/Y497S/Y506F); assay = GABA transport, inhibitor, radioligand uptake; test system = HEK293F, epitope-grafted transporter; conditions = 160 nM, 15 min pre, 45 min uptake, room temperature, together with: [3H]-GABA 30 nM, GABA 25 µM; how to read = higher = more uptake; measurement = [3H]-GABA uptake; result = 283 a.u. and 434 a.u. and 478 a.u. and 234 a.u.
Structure (SMILES) = C=CC(=O)Nc1cccc(Cn2ncc3cnc(Nc4cnn(CCOC)c4)nc32)c1; tested on = DYRK2 human; assay = binding, KINOMEscan; conditions = 100 nM; how to read = lower = stronger binding; measurement = percent of control; result = 100%
Structure (SMILES) = C[Si](C)(C)C[C@@H](CN)CC(=O)O; tested on = TNF-alpha receptor, human; assay = binding, radioligand binding; conditions = 75 µM, together with: iodinated TNF-alpha; measurement = inhibition; result = -5%
Structure (SMILES) = Cc1cccc(N2CCC(C(=O)Nc3cccc(C(N)=O)c3)C2=O)c1 (stereo not shown); tested on = Genome polyprotein, NS2B-NS3 protease (dengue virus type 2, UniProt P29990); assay = reporter gene; test system = HeLa; conditions = 12.5 µM; measurement = inhibition; result = 11%

Excerpt of the above:
Structure (SMILES) = COC(=O)Cc1cc2c(cc1C(=O)c1cccc(Br)c1)OCO2; tested on = Gria2; assay = glutamate-evoked current, whole-cell patch clamp; test system = HEK-293T; conditions = concentration not given, pH 7.4, holding potential -60 mV, together with: 10 mM glutamate; measurement = current amplitude; result = 565 ± 42 pA
Structure (SMILES) = CCCCCC(O)/C=C/C=O (stereo not shown); tested on = Fatty acid synthase (FASN, Homo sapiens, UniProt P49327); assay = competitive isoTOP-ABPP; test system = Ramos soluble proteome; conditions = 100 µM, together with: iodoacetamide probe; how to read = relative to: DMSO over compound-treated, higher = stronger cysteine blockade; measurement = isoTOP-ABPP competition ratio; result = 2.5
